Results collected from several papers.
Lines come from different studies, so protocols differ. Values joined by “and” are separate records of one study, mostly repeats; a detail may differ. ± marks the error that the study gave.

With CN(C)C(=O)c1cc2cnc(Nc3ccc(N4CCNCC4)cn3)nc2n1C1CCCC1 the enrichment score was -0.333 (RNA-seq GSEA, refers to: HALLMARK_UV_RESPONSE_DN gene set; MB002 tumour; concentration not given; reference: vehicle, direction not given).
For Cc1nc(C(=O)N2CCC[C@H]2C(=O)N[C@@H](CCC2CCCCC2)C(=O)N[C@@H](CC(C)C)C(=O)NC(C)(C)C(=O)N[C@@H](CC(C)C)C(=O)N[C@@H](CC(C)C)C(=O)NC(C)(C)C(=O)NC(C)(C)C(=O)NCCC(=O)NC2(CN(C)C)CCC2)co1, the calcein leakage was 10.3% (small unilamellar vesicles; concentration not given).
Cn1cc(Nc2nc(N)nc(-c3cccc(-n4ccc5cc(C6CC6)cc(F)c5c4=O)c3CO)n2)cn1 gave an inhibition of 69.7% (CD63 upregulation, anti-IgE-induced; human, multiple ascending dose, whole blood basophils ex vivo; 50 mg twice daily, day 14, 2 h).
C[C@H](Oc1ccc(Br)cc1-c1ccon1)C(=O)O: “maximum voluntary grip contraction” -2.36 kg (handgrip dynamometry; healthy human males; 600 mg once daily, multiple doses; reference: placebo).
Cc1n[nH]c2ccc(-c3cc(OC[C@@H](N)Cc4ccccc4)cnc3-c3ccoc3)cc12 — result for “log2 fold change”: 0.0395 (kinase binding, competitor, MIB/MS competition, refers to: CMK2; Candida albicans cell lysate; 100 nM; reference: DMSO).
CNCc1cc(-c2ccccc2F)n(S(=O)(=O)c2cccnc2)c1 gave an inhibition of 80.5% (gastric acid secretion; dog Heidenhain pouch; oral, 5 mg/kg, 24 h after dosing, together with: histamine).
The colony survival of CO[C@@H]1[C@@H](OC(N)=O)[C@@H](O)[C@H](Oc2ccc3c(O)c(NC(=O)c4ccc(O)c(CC=C(C)C)c4)c(=O)oc3c2C)OC1(C)C is reported as 78.9% and 37.9% and 65.5% and 51.2% and 63.7% (Brca1 wild-type MEFs, mouse; 100 µM).
O=S(=O)(Nc1ccc(O)c(Br)c1)c1ccccc1 gave an IC50 of greater than 125 µM (CoA-CPM signal reduction, CPM fluorescence thiol; cell-free biochemical; assay interference counter-screen, together with: CoA replacing acetyl-CoA).
For N#Cc1ccc2c(-c3ccncc3)c(-c3ccc(F)cc3)nn2c1, “log2 fold change” read 0.185 (kinase binding, competitor, MIB/MS competition, refers to: CMK1; Candida albicans cell lysate; 100 nM; reference: DMSO).
CC(C)NCC(O)c1ccc(O)c(O)c1 (stereo not drawn) gave a sarcomere length of 1.72 µm (ventricular cardiomyocytes, C57BL/6 mouse; dose not given, 0.676 s).
For COc1nc(-c2cc(C)c(N[C@@H](C)c3cc(F)cc(F)c3)nn2)ccc1-n1cnc(C)c1, “change in level” read 78% (refers to: Aβ40; rat Sprague-Dawley male, CSF; oral, 50 mg/kg daily for 9 days, 4 h after dose; reference: vehicle).
For CCO[C@H]1CCN(Cc2c(OC)cc(C)c3[nH]ccc23)[C@H](c2ccc(C(=O)O)cc2)C1, “PNH red cell clone size” read 73.7% (refers to: PNH-type erythrocytes; PNH patients, blood; 50 mg/200 mg, week 4, mean).
Nc1ccccc1SC1=CS(=O)(=O)c2ccccc21 gave an IC50 of greater than 125 µM (CoA-CPM signal reduction, CPM fluorescence thiol; cell-free biochemical; assay interference counter-screen, together with: CoA replacing acetyl-CoA).
C[C@H]1C[C@H]2CSC(N)=N[C@@]2(c2nc(NC(=O)c3ccc(OC(F)F)cn3)cs2)CO1 — result for “percent change from baseline”: -33% (refers to: total Aβ; healthy adults, plasma; 40 mg single dose, 48 h post-dose; reference: placebo).
Cl.N[C@@H](CC1=CCC(O)(c2nncnn2)C=C1)C(=O)O (stereo partly drawn) has a kobs of 2.8 s⁻¹ (iEDDA cycloaddition; aqueous DMSO 25 %; 37 °C, together with: TCO-OH 7.2 mM).
CN[C@@H]1COc2c(S(=O)(=O)NC(=O)Nc3c4c(cc5c3CCC5)CCC4)cnn2C1 has an inhibition of 52.3% (refers to: IL-1β; human participants, whole blood ex vivo; 150 mg single dose, 48 h, together with: LPS/ATP; reference: baseline).
Cc1oncc1C(=O)Nc1ccc(C(F)(F)F)cc1 gave a DHO concentration of 32.8 ± 4.71 µM (refers to: dihydroorotate; female CD-1 mice, blood; oral, 30 mg/kg daily, 8 h after dose 3).
Under “brain Aβ40 level”, Cn1cc([C@H]2C[C@H]3CSC(N)=N[C@@]3(c3ccc(F)cc3F)CO2)cn1 is recorded as 1.85 ng/g (refers to: Aβx-40; wild-type mouse, brain; subcutaneous, 10 mg/kg, 3 h).
The calcein leakage of CCCCCCCCCC(=O)N[C@@H](Cc1c[nH]c2ccccc12)C(=O)N[C@H](CC(N)=O)C(=O)N[C@@H](CC(=O)O)C(=O)N[C@@H]1C(=O)NCC(=O)N[C@@H](CCCN)C(=O)N[C@@H](CC(=O)O)C(=O)N[C@H](C)C(=O)N[C@@H](CC(=O)O)C(=O)NCC(=O)N[C@H](CO)C(=O)N[C@@H]([C@H](C)CC(=O)O)C(=O)N[C@@H](CC(=O)c2ccccc2N)C(=O)O[C@@H]1C is reported as 34% (bacterial membrane liposomes; 50 µg/mL, 100 min).
For COc1cccc(CC2NC(=O)CN(Cc3ccccc3)C2=O)c1I (stereo not drawn), “onset of significant effect” read 1 h (rat spinal nerve ligation; intraperitoneal, 3 mg/kg).
Cc1cc(Nc2cc3ncccc3c(N[C@@H]3C[C@H]4CC[C@@H](C3)N4CCC#N)n2)n[nH]1: “change in endoscopic subscore” -0.3 (moderate-severe ulcerative colitis patients; 80 mg, day 28, Modified Mayo; reference: baseline, direction not given).
CC(CCc1ccc(O)cc1)NCCc1ccc(O)c(O)c1 (stereo not drawn): “mean arterial pressure change” -0.1 ± 1.3% (anaesthetised instrumented rat; iv infusion, 1 µg/kg/min, 15 min; reference: baseline).
For Cc1nnc(S)s1, the IC50 was greater than 125 µM (CoA-CPM signal reduction, CPM fluorescence thiol; cell-free biochemical; assay interference counter-screen, together with: CoA replacing acetyl-CoA).
CC(C)[C@H](C(=O)Nc1ccc(C(=O)NO)cc1)c1ccccc1 has a tumour volume of 0.25 cm³ (MRI volumetry; human, left parieto-occipital meningioma; dose not given, day 2037 post-treatment).
OC(CCN1CCCCC1)(c1ccccc1)C1CC2C=CC1C2 (stereo not drawn) — result for “EEG Alpha2-power Fz-Cz”: 1.7 µV² (resting-state EEG; healthy elderly humans; oral, 2 mg, eyes open, LS mean).
C[C@@H]1C[C@H]2[C@@H]3CCC4=CC(=O)C=C[C@]4(C)[C@@]3(F)[C@@H](O)C[C@]2(C)[C@@]1(O)C(=O)CO — result for “IL4 level difference”: -28.5 (mouse, oxazolone dermatitis, plasma; topical, 20 mg/ear, once daily, unit not given; reference: vehicle).
CCCCSC1CC(=O)N(c2ccc(Br)cc2)C1=O (stereo not drawn) gave an IC50 of greater than 125 µM (CoA-CPM signal reduction, CPM fluorescence thiol; cell-free biochemical; assay interference counter-screen, together with: CoA replacing acetyl-CoA).
Cc1noc(C)c1-c1cc(C(O)(c2ccccn2)c2ccccn2)c2nc(C3CC3)[nH]c2c1 has a maximum induction of 40% (refers to: HEXIM1 expression; human, peripheral blood; 6 mg, day 1, 1604 study).
O[C@H]1CCCN[C@@H]1CCCn1cnc2c(Cl)c(Cl)ccc21 gave a maximum reduction of 13.8% (ELISA, refers to: Pro-C6; healthy human volunteers, serum; intraduodenal, 200 mg twice daily, day 14, multiple ascending dose).
For CCCCc1nc2c(N)nc3ccccc3c2n1Cc1ccc(N)cc1, CD86 induction read “increased” (CD86 expression, flow cytometry; CD20+ B cells in PBMC, human; 100 or 1000 nM).
Under “pathway activation z-score”, Cn1cc(Nc2nccc(-c3ccc4c(c3)CN(C3COC3)CC[C@H]4NC(=O)c3cn(C(C)(C)C)nn3)n2)cn1 is recorded as 2.29 (refers to: ILK signalling; mouse splenic B cells, mouse; 30 mg/kg, IgD-activated B cells in vivo; reference: vehicle, direction not given).
For Sc1ncnc2ccccc12, the IC50 was greater than 125 µM (CoA-CPM signal reduction, CPM fluorescence thiol; cell-free biochemical; assay interference counter-screen, together with: CoA replacing acetyl-CoA).
With CC(c1cc2ccccc2s1)N(O)C(N)=O (stereo not drawn) the PGD2 level was 7 ± 7 pg/mL (human blood; 3 µM, together with: A23187).
NC(=O)c1cnc2[nH]ccc2c1N[C@@H]1[C@@H]2CC3C[C@H]1C[C@@](O)(C3)C2 has a percent change of -1.57% (CD4+ CD28+ naive T cells, flow cytometry; Japanese humans, peripheral blood; 60 mg single dose; reference: baseline).
With O=S1(=O)C=C(Sc2nc3ccccc3o2)c2ccccc21 the IC50 was greater than 125 µM (CoA-CPM signal reduction, CPM fluorescence thiol; cell-free biochemical; assay interference counter-screen, together with: CoA replacing acetyl-CoA).
Under “tumour volume difference”, C=CCn1c(=O)c2cnc(Nc3ccc(N4CCN(C)CC4)cc3)nc2n1-c1ccc2c(n1)[C@@](O)(CC)CC2 is recorded as -104 ± 5.7 mm3 (MCF7 xenograft, BALB/c nude mice; oral, 80 mg/kg, day 29, once daily days 1-22 and 26-28).
CN(Cc1cc(C(F)(F)F)cc(C(F)(F)F)c1)c1nc2ccccc2c(=O)s1: “pseudo-first-order rate constant” 0 h⁻¹ (HPLC-MS; pH 10.2, together with: 50 mM N-α-acetyl-lysine).
[Cl-].[Cl-].[Ru+2].c1cnc2c(c1)c1nc[nH]c1c1cccnc12.c1cnc2c(c1)ccc1cccnc12.c1cnc2c(c1)ccc1cccnc12: “singlet oxygen quantum yield” 0.56 (air-saturated acetonitrile; reference: Ru(bpy)3(PF6)2).
CC[C@@H]1[C@H](F)C(=O)N[C@@H]1COc1nccc2cc(C(N)=O)c(OC)cc12 gave an inhibition of 16.3% (ATP-site probe binding, ActivX profiling, refers to: PCTAIRE2, PCTAIRE3; THP-1 cell lysate; 0.01 mM, Lys1 site).
O=C(O)CNC(=O)Cc1ccccc1 gave a sarcomere length of 1.71 µm (ventricular cardiomyocytes, C57BL/6 mouse; dose not given, 0.308 s).
The steatosis area of Oc1ccc(/C=C/c2cc(O)cc(O)c2)cc1 is reported as 0.503% and 0.461% and 0.487% and 0.557% (H&E staining; Mus musculus, chronic-plus-binge ethanol, liver; dose not given).
For COc1ccc(-c2cncc(N[C@@H](C)c3cccc(NC(=O)c4cncc(C)c4)c3)n2)cc1OC, “delta delta Ct” read 0.451 (refers to: rno-miR-24-3p; rat SU5416/hypoxia model, lung; dose not given, unit not given; reference: SU5416/hypoxia vehicle).
For CCCC(CCC)C(=O)Oc1cccc(C(O)CCN)c1.O=CO (stereo not drawn), the ONL thickness was 31 µm and 37.6 µm and 30.3 µm and 11.1 µm and 10.7 µm and 36.9 µm (OCT at 500 µm from nerve head; Abca4-/-Rdh8-/- mice, photic damage; oral, 20 mg/kg, 7 days, together with: 10,000 lx light, 30 min).
For CSCCNc1nc(SCCC(F)(F)F)nc2c1ncn2[C@@H]1O[C@H](COP(=O)(O)OP(=O)(O)C(Cl)(Cl)P(=O)(O)O)[C@@H](O)[C@H]1O, “patients with IPA above threshold” read 0% (platelet aggregation, light transmittance aggregometry; human, platelet-rich plasma; dose not given, 30 min, IPA above 80 %, together with: TRAP 15 µM; reference: patients).
C[C@@H](NC(=O)N1C(=O)[C@H](Cc2ccnc(N)c2)[C@H]1C(=O)O)C1CCCCC1 — result for “maximum prothrombin time”: 13.4 s (human, plasma; continuous intravenous infusion, 0.3 mg/kg/h, days 1 to 6 of 5-day infusion, mean).
CO[C@H]1CC[C@H](N2C(=O)CNc3ncc(-c4ccc(C(C)(C)O)nc4)nc32)CC1: “p4EBP1 change from baseline” -45.8% (flow cytometry; stimulated T cells, human, blood; 30 mg single dose, 3 h, mean; reference: baseline).
c1ccc(-c2n[nH]cc2-c2ccnc3ccccc23)nc1 — result for “log2 fold change”: 1.44 (kinase binding, competitor, MIB/MS competition, refers to: KIN3; Candida albicans cell lysate; 10 µM; reference: DMSO).
The IC50 of Cc1ccc(NS(=O)(=O)c2ccc(C(C)(C)C)cc2)cc1Cl is reported as greater than 125 µM (CoA-CPM signal reduction, CPM fluorescence thiol; cell-free biochemical; assay interference counter-screen, together with: CoA replacing acetyl-CoA).
CN1CC[C@H](c2c(O)cc(O)c3c(=O)cc(-c4ccccc4Cl)oc23)[C@H](O)C1 — result for “RNA Pol II CTD Ser2 phosphorylation”: “decreased” (zebrafish embryos; dose not given, 24 hpf).
COc1cc(Nc2ncc3c(n2)-c2ccc(Cl)cc2C(c2c(F)cccc2OC)=NC3)ccc1C(=O)O — result for “relative tumour volume T/C”: 4.51 (mice, SK-N-AS neuroblastoma xenograft; oral, 20.8 mg/kg, day 7).
O=C(O)CCC(=O)O.[2H]C([2H])([2H])Oc1cc(C)c2[nH]ccc2c1CN1CC[C@@H](C2CC2)C[C@H]1c1ccc(C(=O)O)cc1 has a maximum inhibition of 43.6% (EIA, refers to: complement fragment Bb; human, plasma; 300 mg once daily, multiple ascending dose).

Some of these lines once more:
For COc1nc(-c2cc(C)c(N[C@@H](C)c3cc(F)cc(F)c3)nn2)ccc1-n1cnc(C)c1, “change in level” read 78% (refers to: Aβ40; rat Sprague-Dawley male, CSF; oral, 50 mg/kg daily for 9 days, 4 h after dose; reference: vehicle).
For CCO[C@H]1CCN(Cc2c(OC)cc(C)c3[nH]ccc23)[C@H](c2ccc(C(=O)O)cc2)C1, “PNH red cell clone size” read 73.7% (refers to: PNH-type erythrocytes; PNH patients, blood; 50 mg/200 mg, week 4, mean).
Nc1ccccc1SC1=CS(=O)(=O)c2ccccc21 gave an IC50 of greater than 125 µM (CoA-CPM signal reduction, CPM fluorescence thiol; cell-free biochemical; assay interference counter-screen, together with: CoA replacing acetyl-CoA).
C[C@H]1C[C@H]2CSC(N)=N[C@@]2(c2nc(NC(=O)c3ccc(OC(F)F)cn3)cs2)CO1 — result for “percent change from baseline”: -33% (refers to: total Aβ; healthy adults, plasma; 40 mg single dose, 48 h post-dose; reference: placebo).
